# Measured values collected from several papers.
# Protocols differ between the studies behind these lines.
# FLT3 N841I: Receptor-type tyrosine-protein kinase FLT3 (FLT3, Homo sapiens, UniProt P36888, N841I)
# FLT3: Receptor-type tyrosine-protein kinase FLT3 (FLT3, Homo sapiens, UniProt P36888)
# FLT3 D835Y: Receptor-type tyrosine-protein kinase FLT3 (FLT3, Homo sapiens, UniProt P36888, D835Y)
# FLT3 K663Q: Receptor-type tyrosine-protein kinase FLT3 (FLT3, Homo sapiens, UniProt P36888, K663Q)
Compound,target,assay,conditions,how to read,remaining binding [%]
C[C@]1(O)CCCN(c2nc(Nc3ccc(S(=O)(=O)N[C@H]4CC[C@H](CN5CCN(c6ccc(C7CCC(=O)NC7=O)cc6F)CC5)CC4)cc3)ncc2C(F)(F)F)C1 (some centres unmarked),FLT3 N841I,"binding, competition with immobilised ligand",1 µM,,8.4
CC(=O)N1c2ccc(-c3ccc(CNC(=O)c4cn5cc(-c6cnc(N)nc6)nc(N6CCOCC6)c5n4)cc3)cc2CC[C@@H]1C,FLT3,KINOMEscan,10 µM,,98
C=CC(=O)N1CCc2ccc(-n3c(=O)ccc4cnc5ccc(-c6cnn(C)c6)cc5c43)cc21,FLT3 D835Y,KINOMEscan,1 µM,reference: DMSO control,100
COc1c(Cl)cccc1Nc1c(-c2ccncc2C#C[C@@]2(C)CCCN2C(=O)/C=C/CN(C)C)[nH]c2c1C(=O)NCC2,FLT3 N841I,"binding, competition with immobilised ligand",3 µM,,92
CCN1CCN(Cc2ccc(NC(=O)c3ccc(C)c(NC(=O)c4cncc(-c5cccs5)c4)c3)cc2C(F)(F)F)CC1,FLT3 N841I,"binding, competition with immobilised ligand",1 µM,,0
CNC1C[S+]2CC[S+]3CC[S+](C1)[Ru-4]321([N]=C=S)[n]2c3ccc(OC)cc3c3c4c(c5cc(F)c[n+]1c5c32)C(=O)NC4=O (centres unmarked),FLT3 D835Y,KinomeScan,0.1 µM,reference: untreated,12
CCN1CCN(Cc2ccc(C(=O)Nc3ccc(C)c(NCc4cnc5[nH]ccc5c4OC)c3)cc2C(F)(F)F)CC1,FLT3 K663Q,"binding, competition with immobilised ligand",1 µM,,0.55
CNC(=O)C1CCN(c2cc(C)c(F)cc2NC(=O)c2ccc(-c3cc(O)ccc3C)c(C)c2)CC1,FLT3 K663Q,"binding, competition with immobilised ligand",1 µM,,100
CN1CCN(Cc2ccc(NC(=O)c3cccc(C#Cc4cnc(N)c5ncccc45)c3)cc2C(F)(F)F)CC1,FLT3,"cell-free assay, competition with immobilised ligand",50 nM,,5.1
Cc1ccc(-c2c(/C=C(\C#N)C(=O)NC(C)C)n(CCCO)c3ncnc(N)c23)cc1,"FLT3 (Homo sapiens, UniProt P36888, D835H)","cell-free assay, competition with immobilised ligand",1 µM,,100
CC(C)=CC1OC(C)(C)C2C=C3C(=O)C(Cl)=CC(O)C3C3C(O)C4OC4C(=O)C132 (centres unmarked),FLT3,"cell-free assay, competition with immobilised ligand",10 µM,,92
C=CC(=O)N1CCCC(n2c(=O)c3ncccc3n(Cc3ccc(Oc4ccccc4)cc3)c2=O)C1 (centres unmarked),FLT3,"cell-free assay, competition with immobilised ligand",1 µM,,91
Nc1ncc2c(n1)-c1c([nH]c3ccc(C4=CCOCC4)cc13)CCC2,FLT3 N841I,"binding, competition with immobilised ligand",1 µM,,94
Cc1cnc2nc1Nc1cccc(c1)COC/C=C/COCc1cc(ccc1OCCN1CCOCC1)N2,"FLT3 (Homo sapiens, UniProt P36888, D835V)",binding,0.1 µM,,0
